Measured values collected from several papers.
Numbered parts are unrelated; each lists some results of a single study.

Block 1 — method: RNA Bind-n-Seq; form: RNA; medium: in vitro; tested at: 365 nM; reference: no-protein control; direction: higher = stronger binding
Target: RNA binding protein fox-1 homolog 2, RRM domain, GST-SBP tag (RBFOX2, Homo sapiens, UniProt O43251-10, residues 100-194)
Notes: natural RNA segment, single round, ends assumed
Construct (chain): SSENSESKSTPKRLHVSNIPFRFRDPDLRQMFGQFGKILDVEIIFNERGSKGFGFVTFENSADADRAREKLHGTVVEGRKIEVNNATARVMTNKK
Oligonucleotide | RBNS enrichment (R)
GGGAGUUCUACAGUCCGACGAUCGAGUGGGUGCUUGUGUCUGCUGUCUCAGAGGCCUUGGUCAGGAUGAAGUUGGCUGACACAGCUUAGCUUGGUUUUGCUUAUUCAAAAGAGAAAAUAACUACACAUGGAAAUGGAAUUCUCGGGUGCCAA | 0.469
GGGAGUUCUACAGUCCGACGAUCAUGUUUGGUUCAUUUGAAAUUUUGGAAUAAUUGUGAAUGUAUGAUAUUGUAAAAUUAAAAAAAUAUAUAGAACUGUCCCUUAAUCAUAUUGACGUUAUAACUGGGCUUCAUGGAAUUCUCGGGUGCCAA | 1.71
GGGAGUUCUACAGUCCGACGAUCUCCAGAGGUUGAAGGACUGACUCUCACAUCUGUCCUGAGGUAGAGAGUAGGGGUGGGGACAAGGUACUUUCCCUCUCUCUGCCUUGUUUAUUUUGUACUGUAAUGAAUGUUGGAAUUCUCGGGUGCCAA | 0.987
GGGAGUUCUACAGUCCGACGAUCCAGGCAGCAUGGUAUGUUUUUAGCCUUUGUUACAGUUUUAGCAACAUUGAUGUCUAAGAGGGGCCGUGGUAAUAGAUUGCAUCUGCCCUGUGCAUGCGCAUGUUUAACCAUGGAAUUCUCGGGUGCCAA | 8.49
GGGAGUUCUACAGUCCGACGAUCGUACUGCUGGACAGGCAUGUGUGCUCAAAGUACAUUGAUUGCUCAAAUAUAAGGAAAUGGCCCAAUGAACGUGGUUGUGGGAGGGGAAAGAGGAAACAGAGCUAGUCAGAUGGAAUUCUCGGGUGCCAA | 3.68
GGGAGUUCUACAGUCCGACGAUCAGAGUCUCGCCCGAUCCCAUCGGCAUCCCGGGGAGGGCCCGGGAGCCUCCGUCAACCGUCCUCUAAUCCAGAGUUUACUCCACCUGCCGCACUUAGCAGGGGGACGGGACUGGAAUUCUCGGGUGCCAA | 0.311
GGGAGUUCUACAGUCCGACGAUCUCAAUCAUGUACUUUAGUUUAAUGUAUAAAGAUUUUCUAGGAAAUGAUAUUGUGUAUUAAGACAUUCCUUAAUUAAAUUAGGACAAAAUGGCUGCUGUAUAUUUACAAUAUGGAAUUCUCGGGUGCCAA | 0.32
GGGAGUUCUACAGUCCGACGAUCCAGGAACUGCAUGCCUGCCUCUACCUUUCCCCACCUGAUACACACAGCUCCUGCUGUGACUGAGGGACGGGGUGUAUCUGGCCUACCCUAGUUGUUGCAGAAUCCUUCCCUGGAAUUCUCGGGUGCCAA | 2.58
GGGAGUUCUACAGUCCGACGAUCAAUGUAUAGUAUUUUAGAACAACAACAACAAAACUCAAUAAACAGUUGAUCUUGUGUGUUUGACAGUCCUUUGCCUUGCAUCCACCCUCAUGUUCACACAGCUGAUAGACUGGAAUUCUCGGGUGCCAA | 0.511
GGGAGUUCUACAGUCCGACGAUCUCCAAUUUAACUCUCUGAAUAUGUUGCCAUAAUUGGAGCUUUUUCCUUCUUCUGAUUCCUUUAAGCUCUCCCACCCUUGUGGACUUGGUAGUUAAGAGGUUCCACAGAGUUGGAAUUCUCGGGUGCCAA | 0.324
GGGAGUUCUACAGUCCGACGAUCCUUUGUGUGUGAUAUUUUAAUCAAAAGUGGUUGAGUUGUUAACAGUGUUCUUUGAAAGAAUCUCUAAAAGGCUUAUAAAUGUUUGAAAUAUCACACAAAGGCUGAUUUCUUGGAAUUCUCGGGUGCCAA | 0.33
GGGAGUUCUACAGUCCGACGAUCUUUCGGGGGUCGGGGGAGGGCUCUUCAGAUGCCUCCAUAGGACCAAGUCCCCAUCAUUGCCGGGAGUGUGGAUUCUAGCAGCAGAGCUGGAAACGAUGAGAUUCCACAGAUGGAAUUCUCGGGUGCCAA | 0.578

Block 2 — method: protein-binding microarray; form: double-stranded DNA, one strand shown; medium: in vitro; tested at: 940 nM top; notes: 60-bp whole probe; with: salmon DNA 0.4 mg/ml; reference: random background probes; direction: higher = stronger binding
Target: Interferon regulatory factor 5, full length, phosphomimetic (IRF5, Homo sapiens, UniProt Q13568-2, residues 1-514, S451D/S453D/S456D/S462D)
Constant ends, left off below: GCCTAGCAC … GTGCTAGGTCTTGATTCGCTTGACGCTGCTG
Oligonucleotide | fitted relative affinity [z-score]
GACGGCTTCCTTTTCCTGAC | 0.243
TTAGGTATCCTACTGCTTTT | 0.153
GAAATTTTCCCCTACTGTAT | 0.961
GACGGTCTCGGACTGGTGAC | 0.738
TGCTCCTTATGGCTAAAGGG | -0.275
TTAGGTCTCCTTCTCGTTTA | 0.687
GATGGACTGGGACTGGGGAC | -0.577
TTAGGTATCCTTCTACTTTA | 0.824
GACGTTCTCCTTCTCCTGAC | 0.663

Block 3 — method: universal PBM; form: double-stranded DNA, one strand shown; medium: in vitro; tested at: 600 nM; direction: higher = stronger binding
Target: Sal-like protein 4, full length isoform A (SALL4, Homo sapiens, UniProt Q9UJQ4, residues 1-1053)
Sequence of UniProt Q9UJQ4 (whole entry, looked up): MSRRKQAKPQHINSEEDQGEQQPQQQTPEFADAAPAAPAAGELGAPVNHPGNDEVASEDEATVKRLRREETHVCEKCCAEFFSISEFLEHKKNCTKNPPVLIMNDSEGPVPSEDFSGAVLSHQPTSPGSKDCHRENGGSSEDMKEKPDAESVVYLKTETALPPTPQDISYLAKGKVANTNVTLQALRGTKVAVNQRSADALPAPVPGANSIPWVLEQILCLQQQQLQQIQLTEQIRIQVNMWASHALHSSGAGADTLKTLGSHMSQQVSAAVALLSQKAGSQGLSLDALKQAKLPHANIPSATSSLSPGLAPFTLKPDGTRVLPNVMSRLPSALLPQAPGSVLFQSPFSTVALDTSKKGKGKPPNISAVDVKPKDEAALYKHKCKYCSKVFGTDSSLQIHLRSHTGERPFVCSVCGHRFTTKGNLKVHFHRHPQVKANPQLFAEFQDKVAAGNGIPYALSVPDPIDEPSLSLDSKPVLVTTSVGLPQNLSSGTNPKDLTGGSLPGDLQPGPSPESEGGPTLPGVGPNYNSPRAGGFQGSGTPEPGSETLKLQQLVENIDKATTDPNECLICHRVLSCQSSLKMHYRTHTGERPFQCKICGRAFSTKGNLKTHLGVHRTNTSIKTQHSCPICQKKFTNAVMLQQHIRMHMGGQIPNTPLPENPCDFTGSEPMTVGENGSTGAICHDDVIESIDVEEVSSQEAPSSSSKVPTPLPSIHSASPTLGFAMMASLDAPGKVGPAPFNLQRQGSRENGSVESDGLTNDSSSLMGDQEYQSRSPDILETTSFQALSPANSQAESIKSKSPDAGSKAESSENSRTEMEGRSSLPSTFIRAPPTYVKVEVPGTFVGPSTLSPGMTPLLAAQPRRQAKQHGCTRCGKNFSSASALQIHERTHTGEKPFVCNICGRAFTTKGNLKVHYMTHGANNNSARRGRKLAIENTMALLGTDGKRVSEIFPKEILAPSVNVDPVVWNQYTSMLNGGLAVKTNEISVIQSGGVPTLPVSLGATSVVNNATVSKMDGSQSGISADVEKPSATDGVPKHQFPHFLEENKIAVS
Notes: 8-mer, flanks averaged, mean of replicates
Oligonucleotide | E-score
ACATTTAG | 0.196
ACTCGATA | 0.0835
ACAGTTTA | 0.207
AGGCGGCA | -0.234
CGTCCCCA | -0.228
CTAGACCA | 0.0181
GAAAAGTC | -0.00861
CGTATAAC | 0.144
ACGCAACG | -0.0854

Mixed results
Substance | target | test | system | conditions | scale | measurement | value
PhoQ, residues 284 288 289 292 302 303 SIHLQL | PhoP, residues 12 14 15 18 19 NHTVL (Escherichia coli, UniProt P23836) | Sort-seq, measured: YFP reporter | E. coli | PhoQ-PhoP variant library, with: 10 µM Mg2+ | reference: high Mg2+ state, higher = stronger signaling | fold induction | 5.38

Excerpt of the above (block 3):
Oligonucleotide | E-score
GAAAAGTC | -0.00861
CGTCCCCA | -0.228
